# Measured values gathered from unrelated publications.
# Protocols differ between the studies behind these lines.
Structure (SMILES),tested on,test,system,conditions,scale,endpoint,value
CCn1cc(-c2cc(Cn3ccoc3=N)cc3c2CCN([C@@H](C)c2cc(OC)ccn2)C3=O)c(C(F)(F)F)n1,HT55,"cell growth, inhibitor",,120 h,,EC50,0.15 µM
NC(N)=NCC(=O)O,,"binding, MIDAS equilibrium dialysis LC-MS",A2AR-BRIL thermostabilized,concentration not given,baseline: no-protein control,log2 fold change,-0.0709
CCn1cc(-c2cc(Cn3ccnc3)cc3c2CCN([C@H](c2cc(OC)ccn2)C2CC2)C3=O)c(C(F)(F)F)n1,LS-123,"cell growth, inhibitor",,120 h,,EC50,24.7 µM
CSc1cc(Oc2ccnc3[nH]c(=O)cnc23)ccc1NC(=O)Nc1cc(C(C)(C)C)nn1-c1ccccc1,mean of patient lines P1-P3,"reverse phase protein array, item: Akt pSer473",,"1 µM, 4 h",baseline: DMSO,phospho/total Akt ratio,0.35
Cn1cc(-c2ccc(-c3cncc(Cl)c3N3CCC4(CCNC4=O)CC3)cc2)cn1,COLO 205,"gene expression, microarray, item: ICAM1 mRNA",,"concentration not given, 6 h",baseline: untreated cells,log2 fold change,1.4
O=c1[nH]c(=O)c2nc[nH]c2[nH]1,,"binding, MIDAS equilibrium dialysis LC-MS",A2AR-BRIL thermostabilized,concentration not given,baseline: no-protein control,log2 fold change,0.245
COc1cnc2cccc(N3CCc4c(cc(Cn5ccnc5C)cc4-c4cn(C)nc4C(F)(F)F)C3=O)c2c1,WM-115,"cell growth, inhibitor",,120 h,,EC50,> 30 µM
O=C(O)CNC(=O)Cc1ccccc1,,,"ventricular cardiomyocytes, C57BL/6 mouse","dose not given, 0.636 s",,sarcomere length,1.71 µm
Nc1ncnc2c1ncn2[C@H]1C[C@H](O)[C@@H](COP(=O)(O)O)O1,,"binding, MIDAS equilibrium dialysis LC-MS",A2AR-BRIL thermostabilized,concentration not given,baseline: no-protein control,log2 fold change,-0.285

# For quick reference, copied from above:
Structure (SMILES),tested on,test,system,conditions,scale,endpoint,value
COc1cnc2cccc(N3CCc4c(cc(Cn5ccnc5C)cc4-c4cn(C)nc4C(F)(F)F)C3=O)c2c1,WM-115,"cell growth, inhibitor",,120 h,,EC50,> 30 µM
O=c1[nH]c(=O)c2nc[nH]c2[nH]1,,"binding, MIDAS equilibrium dialysis LC-MS",A2AR-BRIL thermostabilized,concentration not given,baseline: no-protein control,log2 fold change,0.245
